Experimental data gathered from unrelated publications.

SMILES | organism | test | test system | setting | MIC
CCN1CCN(C(=O)N[C@@H](C(=O)N[C@@H]2C(=O)N3[C@@H]2SC(C)(C)[C@@H]3C(=O)O)c2ccccc2)C(=O)C1=O | Escherichia coli | broth microdilution | Keio mutant JW0587-1 | 18 h, enterobactin-related gene | 1.56 µg/mL
CC[C@H](C)[C@H](NC(=O)[C@H](CCCCN)NC(=O)[C@H](CCCCN)NC(=O)[C@H](Cc1ccccc1)NC(=O)[C@@H](NC(=O)[C@@H](NC(=O)[C@H](CCCNC(=N)N)NC(=O)[C@H](Cc1ccccc1)NC(=O)[C@@H](NC(=O)[C@H](CCCCN)NC(=O)[C@H](CCCCN)NC(=O)[C@@H](N)CCSC)[C@@H](C)CC)C(C)C)[C@@H](C)CC)C(=O)N[C@@H](CC(C)C)C(=O)N[C@@H](CCCCN)C(=O)N[C@@H](CCCNC(=N)N)C(=O)N[C@@H](CC(C)C)C(=O)N[C@H](C(=O)N[C@H](C(=O)O)C(C)C)[C@@H](C)CC | Staphylococcus aureus | broth microdilution | MRSA GU-1 | compound pretreated with trypsin 1 h, together with: trypsin 1 mg/mL | > 32 µg/mL
C[C@@H](O)[C@H]1C(=O)N2C(C(=O)O)=C(SCCN=CN)C[C@H]12 | Klebsiella pneumoniae | broth microdilution | KPC-127 producing |  | 0.5 µg/mL
CC(C)C[C@H](NC(=O)[C@H](CCCNC(=N)N)NC(=O)[C@H](Cc1c[nH]c2ccccc12)NC(=O)[C@H](CCCNC(=N)N)NC(=O)[C@H](Cc1c[nH]c2ccccc12)NC(=O)[C@H](Cc1c[nH]c2ccccc12)NC(=O)[C@H](Cc1c[nH]c2ccccc12)NC(=O)[C@H](CCCNC(=N)N)NC(=O)[C@H](Cc1c[nH]c2ccccc12)NC(=O)[C@@H](N)CCCNC(=N)N)C(N)=O | Candida albicans | broth microdilution | 58288, RPMI 1640-MOPS | 48 h, 30 °C | 8 µM
CC(C)C1NC(=O)C(C(=O)NC(C(=O)NC2C(=O)N3C2SC(C)(C)C3C(=O)O)c2ccccc2)=C1O (stereo not shown) | Escherichia coli | broth microdilution | Keio mutant JW0587-1 | 18 h, enterobactin-related gene | 25 µg/mL
CC(C)[C@H](NC(=O)[C@H](CCCNC(=N)N)NC(=O)[C@H](Cc1c[nH]c2ccccc12)NC(=O)[C@H](CCCNC(=N)N)NC(=O)[C@H](Cc1c[nH]c2ccccc12)NC(=O)[C@H](Cc1c[nH]c2ccccc12)NC(=O)[C@H](Cc1c[nH]c2ccccc12)NC(=O)[C@H](CCCNC(=N)N)NC(=O)[C@H](Cc1c[nH]c2ccccc12)NC(=O)[C@H](CCCNC(=N)N)NC(=O)CN)C(N)=O | Candida albicans | broth microdilution | 14936, RPMI 1640-MOPS | 48 h, 30 °C | 8 µM
N=C(N)NCCC[C@H](NC(=O)CCCCCNC(=O)[C@H](CCCNC(=N)N)NC(=O)[C@H](CCCNC(=N)N)NC(=O)CCCCCNC(=O)[C@H](CCCNC(=N)N)NC(=O)[C@H](CCCNC(=N)N)NC(=O)CCCCCNC(=O)[C@H](CCCNC(=N)N)NC(=O)[C@H](CCCNC(=N)N)NC(=O)CCCCCNC(=O)[C@@H](N)CCCNC(=N)N)C(=O)NCCCCCC(=O)NCCC(=O)O | Escherichia coli |  | ATCC 25922 | 1 h, 37 °C, after 90% fetal bovine serum | > 192 µM
N=C(N)NCCC[C@H](NC(=O)CN)C(=O)N[C@@H](Cc1c[nH]c2ccccc12)C(=O)N[C@@H](CCCNC(=N)N)C(=O)N[C@@H](Cc1c[nH]c2ccccc12)C(=O)N[C@@H](Cc1c[nH]c2ccccc12)C(=O)N[C@@H](Cc1c[nH]c2ccccc12)C(=O)N[C@@H](CCCNC(=N)N)C(=O)N[C@@H](Cc1c[nH]c2ccccc12)C(=O)N[C@@H](CCCNC(=N)N)C(=O)N[C@@H](Cc1c[nH]c2ccccc12)C(N)=O | Candida albicans | broth microdilution | 58288, RPMI 1640-MOPS | 48 h, 30 °C | 8 µM
CN[C@H](CC(C)C)C(=O)N[C@H]1C(=O)N[C@@H](CC(N)=O)C(=O)N[C@H]2C(=O)NC3C(=O)N[C@H](C(=O)N[C@H](C(=O)NCCC[N+](C)(C)C)c4cc(O)cc(O)c4-c4cc3ccc4O)[C@H](O)c3ccc(c(Cl)c3)Oc3cc2cc(c3OC2OC(CO)C(O)[C@H](O)[C@@H]2O[C@H]2CC(C)(NCc3ccc(-c4ccc(Cl)cc4)cc3)[C@H](O)[C@H](C)O2)Oc2ccc(cc2Cl)[C@H]1O (stereo partly shown) | Enterococcus faecalis |  | BM 4166 vanA |  | 1 µg/mL
N=C(N)NCCC[C@H](NC(=O)[C@H](Cc1c[nH]c2ccccc12)NC(=O)[C@H](CCCNC(=N)N)NC(=O)[C@H](Cc1c[nH]c2ccccc12)NC(=O)[C@H](Cc1c[nH]c2ccccc12)NC(=O)[C@H](Cc1c[nH]c2ccccc12)NC(=O)[C@H](CCCNC(=N)N)NC(=O)[C@H](Cc1c[nH]c2ccccc12)NC(=O)[C@@H](N)CCCNC(=N)N)C(=O)N[C@@H](Cc1c[nH]c2ccccc12)C(N)=O | Candida albicans | broth microdilution | CGMCC 2.209, RPMI 1640-MOPS | 48 h, 30 °C, together with: KCl 4.5 mM | 8 µM
CC(C)C[C@@H]1NC(=O)[C@H](Cc2ccccc2)NC(=O)[C@H](Cc2ccc(O)cc2)NC(=O)[C@H](CC(C)C)NC(=O)[C@H](CCC(=O)O)NC(=O)[C@H](Cc2ccccc2)NC(=O)[C@H](CCCNC(=N)N)NC(=O)[C@H](CCC(N)=O)NC(=O)[C@H](CC(C)C)NC(=O)[C@H](CC(=O)O)NC(=O)[C@@H]2CCCN2C(=O)[C@H](CCCCN)NC(=O)[C@H](C(C)C)NC(=O)[C@H](CC(N)=O)NC(=O)[C@H](Cc2ccc(O)cc2)NC(=O)[C@H]([C@@H](C)O)NC(=O)[C@@H](N)CSSC[C@@H](C(=O)O)NC(=O)[C@H]([C@@H](C)O)NC(=O)[C@H](C(C)C)NC(=O)[C@H]([C@@H](C)O)NC(=O)CNC1=O | Vibrio alginolyticus | broth dilution |  | 24 h | > 40 µM
C[C@H](NC(=O)[C@H](CCCNC(=N)N)NC(=O)[C@H](Cc1c[nH]c2ccccc12)NC(=O)[C@H](CCCNC(=N)N)NC(=O)[C@H](Cc1c[nH]c2ccccc12)NC(=O)[C@H](Cc1c[nH]c2ccccc12)NC(=O)[C@H](Cc1c[nH]c2ccccc12)NC(=O)[C@H](CCCNC(=N)N)NC(=O)[C@H](Cc1c[nH]c2ccccc12)NC(=O)[C@@H](N)CCCNC(=N)N)C(N)=O | Candida albicans | broth microdilution | 58288, RPMI 1640-MOPS | 48 h, 30 °C | 4 µM
CC1(C)SC2C(NC(=O)C(NC(=O)C3=C(O)CN(c4ccccc4)C3=O)c3ccccc3)C(=O)N2C1C(=O)O (stereo not shown) | Escherichia coli | broth microdilution | Keio mutant JW0587-1 | 18 h, enterobactin-related gene | 100 µg/mL
N=C(N)NCCC[C@H](NC(=O)[C@H](Cc1c[nH]c2ccccc12)NC(=O)[C@H](CCCNC(=N)N)NC(=O)[C@H](Cc1c[nH]c2ccccc12)NC(=O)[C@H](Cc1c[nH]c2ccccc12)NC(=O)[C@H](Cc1c[nH]c2ccccc12)NC(=O)[C@H](CCCNC(=N)N)NC(=O)[C@H](Cc1c[nH]c2ccccc12)NC(=O)[C@H](CCCNC(=N)N)NC(=O)CN)C(N)=O | Candida albicans | broth microdilution | CGMCC 2.209, RPMI 1640-MOPS | 48 h, 30 °C, together with: MgCl2 1 mM | 8 µM
CC(C)(C)Oc1ccc(CC2NC(=O)C(C(=O)NC(C(=O)NC3C(=O)N4C3SC(C)(C)C4C(=O)O)c3ccccc3)=C2O)cc1 (stereo not shown) | Escherichia coli | broth microdilution | isolate IU 356 A, KPC-3, VIM-1, TEM | no clavulanic acid | > 200 µg/mL
CC[C@H](C)[C@H](NC(=O)[C@H](CC(N)=O)NC(=O)[C@H](Cc1ccccc1)NC(=O)[C@H](CCCNC(=N)N)NC(=O)[C@H](CCCNC(=N)N)NC(=O)[C@@H](N)CCCCN)C(=O)N[C@@H](CCCCN)C(=O)N[C@@H](CC(C)C)C(=O)N[C@@H](Cc1c[nH]c2ccccc12)C(=O)N[C@@H](CCCCN)C(=O)N[C@H](C(=O)N[C@@H](Cc1ccccc1)C(=O)O)[C@@H](C)O | Staphylococcus haemolyticus |  |  |  | 50 µg/mL
CC1(C)SC2C(NC(=O)C(NC(=O)C3=C(O)C(Cc4ccc([N+](=O)[O-])cc4)NC3=O)c3ccccc3)C(=O)N2C1C(=O)O (stereo not shown) | Escherichia coli | broth microdilution | isolate IU, CTX-M-14, TEM-1 | together with: clavulanic acid 6 µg/mL | 200 µg/mL
[O-][N+]1=C(c2ccc(Cl)cc2)C2=NCCN2c2ccccc21 | Bacteroides fragilis |  |  |  | 0.06 to 0.125 µg/mL
CC1(C)S[C@@H]2[C@H](NC(=O)[C@H](N)c3ccccc3)C(=O)N2[C@H]1C(=O)O | Escherichia coli | broth microdilution | isolate IU 356 A, KPC-3, VIM-1, TEM | no clavulanic acid | > 200 µg/mL
C[C@@H](O)[C@H](NC(=O)[C@H](Cc1ccccc1)NC(=O)[C@H](Cc1c[nH]c2ccccc12)NC(=O)[C@H](Cc1ccccc1)NC(=O)[C@@H](NC(=O)[C@H](Cc1ccccc1)NC(=O)[C@H](CCCNC(=N)N)NC(=O)[C@@H](N)CCCNC(=N)N)[C@@H](C)O)C(=O)N[C@@H](Cc1ccccc1)C(=O)N[C@@H](CCCNC(=N)N)C(=O)N[C@@H](CCCNC(=N)N)C(N)=O | Lactiplantibacillus plantarum |  | 7469, probiotic strain | 24 h, 37 °C, tested up to 128 µM | 128 µM
CN1CC(O)=C(C(=O)NC(C(=O)NC2C(=O)N3C2SC(C)(C)C3C(=O)O)c2ccccc2)C1=O (stereo not shown) | Escherichia coli | broth microdilution | isolate IU 356 A, KPC-3, VIM-1, TEM | together with: clavulanic acid 6 µg/mL | > 200 µg/mL
CC[C@H](C)[C@H](NC(=O)[C@H](CCCNC(=N)N)NC(=O)[C@H](Cc1c[nH]c2ccccc12)NC(=O)[C@H](CCCNC(=N)N)NC(=O)[C@H](Cc1c[nH]c2ccccc12)NC(=O)[C@H](Cc1c[nH]c2ccccc12)NC(=O)[C@H](Cc1c[nH]c2ccccc12)NC(=O)[C@H](CCCNC(=N)N)NC(=O)[C@H](Cc1c[nH]c2ccccc12)NC(=O)[C@H](CCCNC(=N)N)NC(=O)CN)C(N)=O | Candida albicans | broth microdilution | SP3902, RPMI 1640-MOPS | 48 h, 30 °C | 4 µM

Some of these lines once more:
SMILES | organism | test | test system | setting | MIC
N=C(N)NCCC[C@H](NC(=O)[C@H](Cc1c[nH]c2ccccc12)NC(=O)[C@H](CCCNC(=N)N)NC(=O)[C@H](Cc1c[nH]c2ccccc12)NC(=O)[C@H](Cc1c[nH]c2ccccc12)NC(=O)[C@H](Cc1c[nH]c2ccccc12)NC(=O)[C@H](CCCNC(=N)N)NC(=O)[C@H](Cc1c[nH]c2ccccc12)NC(=O)[C@H](CCCNC(=N)N)NC(=O)CN)C(N)=O | Candida albicans | broth microdilution | CGMCC 2.209, RPMI 1640-MOPS | 48 h, 30 °C, together with: MgCl2 1 mM | 8 µM
